Experimental data from different studies.
Parts stem from different laboratories: compare values within a part only.

Sample 1 — read-out: ligand displacement; tested at: 10 µM
Target: 5-hydroxytryptamine receptor 7 (HTR7, Homo sapiens, UniProt P34969)
Chain of UniProt P34969 (whole entry, looked up): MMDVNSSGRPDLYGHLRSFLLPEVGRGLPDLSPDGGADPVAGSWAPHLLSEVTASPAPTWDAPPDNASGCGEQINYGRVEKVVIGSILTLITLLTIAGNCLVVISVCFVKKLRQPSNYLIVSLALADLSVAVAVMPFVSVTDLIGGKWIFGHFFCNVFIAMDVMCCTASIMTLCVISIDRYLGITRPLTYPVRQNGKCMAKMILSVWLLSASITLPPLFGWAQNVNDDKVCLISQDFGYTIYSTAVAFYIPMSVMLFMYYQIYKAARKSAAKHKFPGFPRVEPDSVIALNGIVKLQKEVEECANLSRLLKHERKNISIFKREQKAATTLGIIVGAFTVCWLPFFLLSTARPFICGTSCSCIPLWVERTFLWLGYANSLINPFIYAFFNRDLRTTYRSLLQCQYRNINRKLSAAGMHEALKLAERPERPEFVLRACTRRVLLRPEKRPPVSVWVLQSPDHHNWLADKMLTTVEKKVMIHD
| SMILES | inhibition [%] |
| --- | --- |
| CN1CCN(c2cnc3c(C4CCN(C(=O)c5ccc(OC(F)(F)F)cc5N)CC4)ncnc3c2)CC1 | -9.57 |
| CC1=C(C#N)C(c2ccc3[nH]nc(C)c3c2)C(C#N)=C(C)N1 | -0.97 |
| Cc1ccc(-c2cnc([C@@]3(O)CC[C@H](C(=O)O)C(C)(C)C3)s2)cc1Nc1cccc(C(F)(F)F)n1 | -16.4 |
| Cn1nc(C(=O)NCc2ccc(C(=O)O)cc2)cc1-c1ccc2[nH]ccc2c1 | -4.31 |
| COc1ccc2cc(OCC3(C(=O)O)CN(C(=O)c4ccc(F)cc4)C3)ccc2c1 | -9.26 |
| CCC(=NO)C(C)=Cc1ccc(F)c(C)c1 | -0.42 |

Sample 2 — cell line: HuT78; tested at: 2 µM; time: 48 h; relative to: untreated
| Structure (SMILES) | viability [%] |
| --- | --- |
| O=C1NC(=O)/C(=C/c2ccc3c(c2)OC(F)(F)O3)S1 | 123 |
| COc1ccc(CNC(=O)Nc2ncc([N+](=O)[O-])s2)cc1 | 112 |
| COc1cc(N2CCC(N)CC2)ccc1Nc1ncc(Cl)c(-c2c[nH]c3ccccc23)n1 | 123 |
| CNC(=O)c1nn(C)c2c1C(C)(C)Cc1cnc(Nc3ccc(N4CCN(C)CC4)cc3)nc1-2 | 82.1 |
| C[C@@H](N)[C@H]1CC[C@H](C(=O)Nc2ccncc2)CC1 | 141 |
| CN1CC[C@H](c2c(O)cc(O)c3c(=O)cc(-c4ccccc4Cl)oc23)[C@H](O)C1 | 19.3 |

Sample 3 — organism: Sarcocystis neurona; read-out: parasite growth; tested at: 10 µM; setting: secondary screen
| Structure (SMILES) | inhibition |
| --- | --- |
| Nc1ncn([C@@H]2O[C@H](CO)[C@@H](O)[C@H]2O)c(=O)n1 | -38.6% |
| COc1cc(-c2ccc(=O)[nH]n2)ccc1OC(F)F | -45.9% |
| CC(N)C12CC3CC(CC(C3)C1)C2 (centres unmarked) | -23.7% |
| O=C1Nc2ccc(Cl)cc2[C@@](C#CC2CC2)(C(F)(F)F)O1 | 18.2% |
| Br.O=C1CC2(CCCC2)CC(=O)N1CCNCC1COc2ccccc2O1 (centres unmarked) | 32.4% |
| CCCc1nc2c(C)cc(-c3nc4ccccc4n3C)cc2n1Cc1ccc(-c2ccccc2C(=O)O)cc1 | 15.6% |
| CNCCC(Oc1ccc(C(F)(F)F)cc1)c1ccccc1.Cl (centres unmarked) | -30.8% |

Sample 4 — read-out: enzyme activity; mode: inhibitor; tested at: 0.5 µM; relative to: control
Target: Protein kinase C delta type (PRKCD, Homo sapiens, UniProt Q05655)
Chain of UniProt Q05655 (whole entry, looked up): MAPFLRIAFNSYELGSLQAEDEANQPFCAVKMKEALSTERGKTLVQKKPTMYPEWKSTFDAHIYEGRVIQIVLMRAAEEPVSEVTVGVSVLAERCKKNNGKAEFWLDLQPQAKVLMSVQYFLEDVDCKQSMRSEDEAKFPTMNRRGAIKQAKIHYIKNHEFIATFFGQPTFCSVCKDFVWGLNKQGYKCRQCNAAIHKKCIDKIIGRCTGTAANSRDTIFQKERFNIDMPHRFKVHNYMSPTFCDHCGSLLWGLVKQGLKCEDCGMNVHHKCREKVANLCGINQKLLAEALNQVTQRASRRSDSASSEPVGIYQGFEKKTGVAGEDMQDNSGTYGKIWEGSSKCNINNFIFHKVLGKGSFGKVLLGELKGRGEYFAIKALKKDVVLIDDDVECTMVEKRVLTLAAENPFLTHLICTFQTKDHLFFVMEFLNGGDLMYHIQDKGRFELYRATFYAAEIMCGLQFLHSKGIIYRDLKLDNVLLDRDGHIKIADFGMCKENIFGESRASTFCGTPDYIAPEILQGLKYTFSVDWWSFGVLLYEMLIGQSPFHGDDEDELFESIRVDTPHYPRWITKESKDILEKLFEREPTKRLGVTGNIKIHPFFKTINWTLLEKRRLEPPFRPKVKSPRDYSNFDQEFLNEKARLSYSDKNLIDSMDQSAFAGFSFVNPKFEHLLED
| Compound | remaining activity [%] |
| --- | --- |
| CO[C@H]1C[C@@H]2CC[C@@H](C)[C@@](O)(O2)C(=O)C(=O)N2CCCC[C@H]2C(=O)O[C@H]([C@H](C)C[C@@H]2CC[C@@H](O)[C@H](OC)C2)CC(=O)[C@H](C)/C=C(\C)[C@@H](O)[C@@H](OC)C(=O)[C@H](C)C[C@H](C)/C=C/C=C/C=C/1C | 102 |
| C#Cc1cccc(Nc2ncnc3cc(OCCOC)c(OCCOC)cc23)c1 | 104 |
| Nc1[nH]nc2nc3ccccc3nc12 | 98.3 |
| COc1cc2ncnc(Nc3ccc(Oc4ccccc4)cc3)c2cc1OC | 96.8 |
| Cc1cccc(-c2[nH]c(C(C)(C)C)nc2-c2ccc3c(c2)OCO3)n1 | 104 |
| CC(C)[C@H](CO)Nc1nc(Nc2cc(N)cc(Cl)c2)c2ncn(C(C)C)c2n1 | 87.6 |
| CN(C)c1ccc(C=C2C(=O)Nc3ccccc32)cc1 | 95.6 |
| Cn1sc(=O)n(Cc2ccccc2)c1=O | 94.1 |
| Cc1nc(-c2ccccc2)c(-c2ccncc2)o1 | 96.2 |
| O=c1c2ccccc2[nH]c(=S)n1CCN1CCC(=C(c2ccc(F)cc2)c2ccc(F)cc2)CC1 | 95.7 |
| COc1cc2nccc(Oc3ccc(NC(=S)NC(=O)c4ccccc4C)cc3)c2cc1OC | 90.4 |
| O=C1NC(=O)C(c2cn(CCCn3ccnc3)c3ccccc23)=C1Nc1ccccc1 | 19.3 |
| CCOC(=O)c1c(C)[nH]c(/C=C2\C(=O)Nc3ccccc32)c1C | 91.6 |

Some of these lines once more (sample 3):
| Structure (SMILES) | inhibition |
| --- | --- |
| CC(N)C12CC3CC(CC(C3)C1)C2 (centres unmarked) | -23.7% |
| O=C1Nc2ccc(Cl)cc2[C@@](C#CC2CC2)(C(F)(F)F)O1 | 18.2% |
| Br.O=C1CC2(CCCC2)CC(=O)N1CCNCC1COc2ccccc2O1 (centres unmarked) | 32.4% |
| CCCc1nc2c(C)cc(-c3nc4ccccc4n3C)cc2n1Cc1ccc(-c2ccccc2C(=O)O)cc1 | 15.6% |
